Results collected from several papers.
Parts stem from different laboratories: compare values within a part only.

Block 1 — technique: protein binding microarray; form: double-stranded DNA, one strand shown; sample: in vitro; concentration: not given; reference: not given; direction: higher = stronger binding
Target: Histone acetyltransferase KAT6A, both winged helices, GST fusion (KAT6A, Homo sapiens, UniProt Q92794, residues 1-181)
Setting: 8-mer, flanks averaged, mean of 2 arrays, mostly near background
Construct (chain): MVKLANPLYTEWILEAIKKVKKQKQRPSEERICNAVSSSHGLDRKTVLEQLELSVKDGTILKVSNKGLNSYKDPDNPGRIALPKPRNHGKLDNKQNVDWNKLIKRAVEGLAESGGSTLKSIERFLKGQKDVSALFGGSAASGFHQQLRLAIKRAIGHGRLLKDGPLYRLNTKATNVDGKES
Oligonucleotide | E-score
ATCCCTAA | -0.138
TTCACAAA | 0.0217
CGTCAAAG | -0.0662
GGAGCACC | -0.072
ACAGTTCC | 0.136
GGTCGTTA | -0.101
TGGCAACA | -0.283
GAGAGCGC | 0.153
CTGTCATC | -0.0843
ATGCTCCG | 0.106
CAAGCACG | 0.0912
ACGCCCAA | -0.181
AAGTCTTA | -0.119
TCGAGTCA | -0.0962
GCCTATAA | -0.126
GTTGGGCA | -0.0466
ACAGTTAT | -0.0511
ACGGTGTG | 0.053
CGCTGAGC | 0.19
CAGCAACC | -0.127
CCGAAGTC | -0.0111
CTAATTAA | -0.0908
AACAGACC | 0.0479
CTGTACAG | -0.0146
CCTATTCA | -0.0514

Block 2 — technique: RNAcompete; form: RNA; sample: in vitro; concentration: 20 nM; setting: 7-mer, probes averaged, single round; reference: mean of 7-mers; direction: higher = stronger binding
Target: PABPC1L2, full length, GST fusion (mouse, UniProt A0ABA7IW68)
Target sequence (chain): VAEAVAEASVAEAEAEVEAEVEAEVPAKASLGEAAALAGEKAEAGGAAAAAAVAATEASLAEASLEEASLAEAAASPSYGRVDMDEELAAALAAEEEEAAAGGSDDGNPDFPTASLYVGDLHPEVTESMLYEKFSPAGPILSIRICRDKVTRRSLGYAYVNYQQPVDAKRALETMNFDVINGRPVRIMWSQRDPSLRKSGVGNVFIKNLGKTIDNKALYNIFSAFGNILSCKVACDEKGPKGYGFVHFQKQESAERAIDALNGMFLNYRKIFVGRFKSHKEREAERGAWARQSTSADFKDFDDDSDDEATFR
Oligonucleotide | 7-mer Z-score
AAGGAGA | 0.427
UCGAACC | -0.296
UUGUCAG | -0.267
UAGGGUA | 0.0587
AGAGUCU | -0.414
GUACGAU | -0.222
UCCGACA | -0.0337
UCGGAGU | -0.211
UGCAGCG | -0.211
UCCAGGG | -0.0554
ACUUCGC | -0.286
CAGGCGA | 0.305
CUCUACC | -0.306
GGGCAAC | 0.363
UCCCAAG | -0.193
CAUUCAU | -0.233
UGUCUAC | -0.371
GCGCCUG | -0.238
GAGAACA | 0.206
UGCGGCA | 0.0315
AUAUCCA | -0.115
UCGUUUC | -0.541
CAUCAAA | 0.555
CCUCCAA | -0.246
AACUGGU | 0.148

Block 3 — technique: RNA Bind-n-Seq; form: RNA; sample: in vitro; concentration: 365 nM; reference: no-protein control; direction: higher = stronger binding
Target: RNA binding protein fox-1 homolog 2, RRM domain, GST-SBP tag (RBFOX2, Homo sapiens, UniProt O43251-10, residues 100-194)
Setting: natural RNA segment, single round, ends assumed
Constant ends, left off below: GGGAGUUCUACAGUCCGACGAUC … UGGAAUUCUCGGGUGCCAA
Construct (chain): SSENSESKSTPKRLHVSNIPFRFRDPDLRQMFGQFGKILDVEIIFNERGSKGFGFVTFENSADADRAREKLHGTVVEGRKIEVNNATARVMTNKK
Oligonucleotide | RBNS enrichment (R)
AAAGUUGAGCUGUAUUUUUGUUGUUGAUUUAUCUGGAUUUUUUUUAAAGCCUUCUAAAACCCAGUGAAUUCAAUACCUUAAUUAGUACAUACUAUCUUAUGUAAUGCAUA | 0.745
UUUGAGAGAGUAUCGUGUCGAAAGUGUGAUGUUCUACCACUUUACCAAUAACUAAUUUUAAAUACACAUUGUCCUCUCGAUUUUUGGACCAAACAGACGCUCACAGUGGA | 0.56
GGAAUGAAACGGAGUGAACAUGAGCCCAGCUGAGAGAGGAGCAGGAAUGUGUGAAAAACAGCUGCUCUCCUUGUCCCAGCUUUGUGAUUGAGCCCUCUGUCUUGCUCUCU | 0.255
GGCCUUGUUUCUCCUUGCCCAGCAGUGCUGCCUUCAGCGGCCGUGACGGGGCCAGCUGGACACACGGUGAGAUUUUCUCGUAUGUAAAUAAAAGGCAUUUUGGUAAACGU | 0.484
AAUCAUCUCUCUCAAGUUCAAAGUUCCACAAAUCCCUAUGGAAGGGGCAAAAUGCUGCCAGUCUCUUUGCUAAAACAUAACAAGAGUCACCUUUACUCCAGUUCCCAACA | 0.646
UUUUUCUUUCCCUCCUGCCUCUUCCCUUCCCACUCCCUGGUUCAACACAGGUAAAAUGGUUACCCUCCCUUCUUUCCUCCCCUCUGCCUUCAUGGAUCACCAACUCACGU | 0.785
CCAGACUGAAUUUCCUCAUAAAGAAAAAAUGGCGUGCCUUGUGUCUGUGUUUCUCUUUUCUCUGAAAGGAUUAAUAGAUCUGAAGCUUUGGGCCACUCAGAGCCUUCCUU | 0.372
UUACCAAAGGAGUCUUCAGCCCUAUAAAAGGAUUCCUCUAUAGUGUAUUUCUCUAGUGUAUUUAGUGUGUCGUCAAAAUUUUGAUUUAUACAGAGCUUUCAAGAACACAC | 0.309

Block 4 — technique: aptamer microarray, sandwich; form: DNA with 2'F-ANA; sample: in vitro; concentration: 200 nM; added: Cy3 exosite-II aptamer, 400 nM; direction: higher = stronger binding; oligonucleotide: GGTTGGTGTGGTTGG
Target: Prothrombin, mature alpha-thrombin (F2, Homo sapiens, UniProt P00734)
Setting: whole 15-mer aptamer, many near background
Modification | mean fluorescence intensity [a.u.]
2'F-ANA at 2 3 7 8 9 10 11 12 13 14 | 283
2'F-ANA at 2 3 7 8 11 12 13 | 1080
2'F-ANA at 1 10 11 12 13 14 15 | 51.3
2'F-ANA at 3 5 7 10 11 | 52.4
2'F-ANA at 2 3 4 5 6 8 9 10 | 55.2
2'F-ANA at 1 3 5 7 9 10 12 | 49.8
2'F-ANA at 2 4 7 10 11 15 | 85.9
2'F-ANA at 1 4 6 7 9 10 12 14 | 65.3
2'F-ANA at 5 6 7 8 9 13 | 58
2'F-ANA at 2 3 5 6 7 9 11 13 | 65.3
2'F-ANA at 3 5 7 9 11 12 13 15 | 144
2'F-ANA at 2 3 5 8 11 12 13 14 | 172
2'F-ANA at 4 6 7 8 9 11 13 14 | 104
2'F-ANA at 1 2 3 4 6 9 10 14 15 | 83.3
2'F-ANA at 2 4 5 6 7 9 10 11 14 15 | 46.5
2'F-ANA at 1 6 9 10 11 12 15 | 64
2'F-ANA at 6 8 11 12 13 14 | 188
2'F-ANA at 3 5 8 9 13 14 15 | 56
2'F-ANA at 1 2 4 9 11 12 13 14 | 51
2'F-ANA at 3 5 7 8 10 11 12 13 14 | 52.8
2'F-ANA at 1 2 3 4 6 10 11 12 14 15 | 50.7
2'F-ANA at 1 2 4 7 8 9 10 15 | 50.9
2'F-ANA at 1 2 4 7 10 11 13 14 15 | 48.3
2'F-ANA at 1 2 3 4 6 10 11 13 14 15 | 63.7

Repeated from above (block 2):
Oligonucleotide | 7-mer Z-score
UCCAGGG | -0.0554
GUACGAU | -0.222
UCGUUUC | -0.541
UCCCAAG | -0.193
AACUGGU | 0.148
AGAGUCU | -0.414
AAGGAGA | 0.427
CUCUACC | -0.306
